Measurements gathered from unrelated publications.
A part holds a random share of what one study measured.

Study 1 — method: protein binding microarray; molecule type: double-stranded DNA, one strand shown; medium: in vitro; concentration: not given; reference: not given; direction: higher = stronger binding
Target: Histone acetyltransferase KAT6A, winged helix 1, GST fusion (KAT6A, Homo sapiens, UniProt Q92794, residues 1-85)
Setting: 8-mer, flanks averaged, mean of 2 arrays, mostly near background
Residues (chain): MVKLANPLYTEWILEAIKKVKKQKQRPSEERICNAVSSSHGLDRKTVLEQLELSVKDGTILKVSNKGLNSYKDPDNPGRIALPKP
Sequence	E-score
AGACCACA	-0.113
CTGTCGGC	0.332
AGAGCAAA	-0.31

Study 2 — method: universal PBM; molecule type: double-stranded DNA, one strand shown; medium: in vitro; concentration: 600 nM; direction: higher = stronger binding
Target: Sal-like protein 4, full length isoform A (SALL4, Homo sapiens, UniProt Q9UJQ4, residues 1-1053)
Sequence of UniProt Q9UJQ4 (whole entry, looked up): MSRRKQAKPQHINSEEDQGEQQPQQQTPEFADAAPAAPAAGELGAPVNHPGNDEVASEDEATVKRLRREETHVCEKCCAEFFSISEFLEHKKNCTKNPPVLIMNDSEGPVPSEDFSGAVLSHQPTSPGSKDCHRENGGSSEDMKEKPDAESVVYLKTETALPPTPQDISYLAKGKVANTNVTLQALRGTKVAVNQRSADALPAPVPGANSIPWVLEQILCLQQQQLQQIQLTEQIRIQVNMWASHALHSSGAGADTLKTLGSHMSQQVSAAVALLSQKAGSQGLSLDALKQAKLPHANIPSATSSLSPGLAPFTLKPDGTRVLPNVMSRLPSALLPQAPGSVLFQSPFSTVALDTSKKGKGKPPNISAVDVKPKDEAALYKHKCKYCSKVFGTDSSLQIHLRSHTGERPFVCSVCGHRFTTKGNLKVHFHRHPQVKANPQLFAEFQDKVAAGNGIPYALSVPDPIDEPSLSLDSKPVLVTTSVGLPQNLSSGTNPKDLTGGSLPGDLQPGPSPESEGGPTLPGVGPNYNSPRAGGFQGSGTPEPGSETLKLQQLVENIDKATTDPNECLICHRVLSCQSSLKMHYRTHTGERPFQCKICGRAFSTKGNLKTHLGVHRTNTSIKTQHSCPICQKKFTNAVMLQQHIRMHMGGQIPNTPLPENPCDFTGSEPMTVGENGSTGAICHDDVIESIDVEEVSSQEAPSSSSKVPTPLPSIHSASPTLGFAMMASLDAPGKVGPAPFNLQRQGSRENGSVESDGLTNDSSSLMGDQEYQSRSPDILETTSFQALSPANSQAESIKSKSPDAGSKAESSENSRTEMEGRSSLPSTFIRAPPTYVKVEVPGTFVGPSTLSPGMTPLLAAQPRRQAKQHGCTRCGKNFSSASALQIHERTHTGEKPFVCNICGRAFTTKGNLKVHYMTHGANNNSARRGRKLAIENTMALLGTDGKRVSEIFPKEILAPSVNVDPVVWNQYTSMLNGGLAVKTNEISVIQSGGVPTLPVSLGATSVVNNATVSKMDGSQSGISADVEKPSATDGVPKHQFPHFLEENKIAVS
Setting: 8-mer, flanks averaged, mean of replicates
Sequence	E-score
CCATCTTC	0.123
GACCTACA	-0.00874
ACCAAAAT	0.278

Mixed results
T1: Sox, HMG box (Pigoraptor chileana); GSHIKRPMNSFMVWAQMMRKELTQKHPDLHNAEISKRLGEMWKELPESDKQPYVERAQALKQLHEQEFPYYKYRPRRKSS
Substance	target	assay	system	conditions	scale	measurement	value
GAGTCGTCTCGTCAGCACCATCCTTCCGTAGAGCACTCAGGTC	T1, Sox, HMG box (Pigoraptor chileana)	Spec-seq	double-stranded DNA, one strand shown, in vitro	not given, whole probe, mean of replicates	reference: not given, lower = stronger binding	relative binding energy	0.544 ln ratio
PhoQ, residues 284 288 289 292 302 303 GNNTDL	PhoP, residues 12 14 15 18 19 SPWRL (Escherichia coli, UniProt P23836)	Sort-seq, refers to: YFP reporter	E. coli	PhoQ-PhoP variant library, with: 10 µM Mg2+	reference: high Mg2+ state, higher = stronger signaling	fold induction	3.88

Repeated from above (study 1):
Sequence	E-score
AGACCACA	-0.113
